Experimental data gathered from unrelated publications.
Each line is one published result; not all experiments were run side by side.
Target: Inhibitor of nuclear factor kappa-B kinase subunit beta (IKBKB, Homo sapiens, UniProt O14920)

`Cc1cccc(-c2ccc3nc(NC(=O)C4CCCCC4)nn3c2)c1` gave a remaining activity of 90% (enzyme activity, Dundee kinase panel; 10 µM).
The remaining binding of `C=CC(=O)N1CCc2ccc(-n3c(=O)ccc4cnc5ccc(-c6cnn(C)c6)cc5c43)cc21` is reported as 100% (KINOMEscan; 1 µM; relative to: DMSO control).
`Cc1ccc(C)c(-c2ccc3nc(NC(=O)C4CCCCC4)nn3c2)c1` gave a remaining activity of 93% (enzyme activity, Dundee kinase panel; 10 µM).
Under “activity vs control”, `CNC(=O)C[C@H](Cc1ccc(C#N)cc1)NC(=O)c1cc(-c2ccc(CN[C@H](C)c3ccc(C)cc3)o2)ccc1Cl` is recorded as 95% (enzyme activity, inhibitor; 1 µM).
With `CNS(=O)(=O)Nc1nccc(Cc2c(C)c3ccc(Oc4ncccc4F)cc3oc2=O)c1F` the remaining binding was 83% (cell-free assay, competition with immobilised ligand; 10 µM).
The remaining activity of `O=C=[N][Ru-4]123([n]4c5ccc(O)cc5c5c6c(c7cc(F)c[n+]1c7c54)C(=O)NC6=O)[S+]1CC[S+]2CC[S+]3CC1` (centres unmarked) is reported as 97% (enzyme activity; 100 nM, human enzyme, added: 10 µM ATP; relative to: untreated).
`Cc1c[nH]c2nccc(-c3ccc(C(=O)N[C@@H]4c5c(F)cc(C(F)F)cc5C[C@@H]4O)cn3)c12` gave a remaining binding of 14% (binding, competition with immobilised ligand; 3 µM).
`COc1c(OCCCN2CCOCC2)ccc2c1N=C(NC(=O)c1cnc(N)nc1)N1CCN=C21` has a remaining activity of 103% (kinase activity, inhibitor; 1 µM; relative to: untreated control).
`Cc1cccc(O[C@H]2CCC[C@@H](C(C)CNCc3ccncc3)C2)c1` (relative stereo) has an inhibition of 2% (enzyme activity, inhibitor; 1 µM).
The remaining binding of `CNC(=O)C1CCN(c2cc(C)c(F)cc2NC(=O)c2ccc(-c3cc(O)ccc3C)c(C)c2)CC1` is reported as 100% (binding, competition with immobilised ligand; 1 µM).
With `NC(=O)C[C@H]1CCc2sc3ncnc(O[C@H]4CC[C@H](N5CCOCC5)CC4)c3c21` the inhibition was 3% (enzyme activity, inhibitor; 10 µM).
With `C=CC(=O)Nc1cccc(-c2cnc3[nH]cc(C(=O)NC(C)(C)C)c3n2)c1` the inhibition was 0% (enzyme activity, inhibitor; 0.1 µM).
The remaining binding of `CCN1CCN(Cc2ccc(C(=O)Nc3ccc(C)c(NCc4cnc5[nH]ccc5c4OC)c3)cc2C(F)(F)F)CC1` is reported as 1% (binding, competition with immobilised ligand; 1 µM).
With `COc1cc(Nc2nc(C)cc(-c3cnn4nc(OC)ccc34)n2)cc(C(F)(F)F)c1` the remaining binding was 81% (KINOMEscan; 1 µM, IKK-beta; relative to: DMSO).
With `CN1CCN(Cc2ccc(NC(=O)c3cccc(C#Cc4cnc(N)c5ncccc45)c3)cc2C(F)(F)F)CC1` the remaining binding was 0.8% (cell-free assay, competition with immobilised ligand; 50 nM).
`Cc1nc2c(F)cc(-c3nc(Nc4ccc(CNC(=O)CCCCCCC(=O)NO)cc4)ncc3F)cc2n1C(C)C` has an inhibition of 64% (enzyme activity, inhibitor; 1 µM).
For `COc1c(Cl)cccc1Nc1c(-c2ccncc2C#C[C@@]2(C)CCCN2C(=O)/C=C/CN(C)C)[nH]c2c1C(=O)NCC2`, the remaining binding was 88% (binding, competition with immobilised ligand; 3 µM).
`COc1ccc(NC(=O)Nc2ccc3c(c2)C(=O)N(C(C)CO)CC(C)C(CN(C)Cc2ccc4c(c2)OCO4)O3)cc1` (centres unmarked) has a remaining activity of 101% (kinase activity, KinaseProfiler; 0.03 µM, species human; relative to: control).
With `Nc1ncc(-c2cc(-c3cnn(CC(F)(F)F)c3)ncc2F)nc1C(=O)NC1CNCC(F)C1` (centres unmarked) the remaining activity was 94.4% (enzyme activity; 1 µM; relative to: DMSO control).
`Cc1cnc2nc1Nc1cccc(c1)COC/C=C/COCc1cc(ccc1OCCN1CCOCC1)N2` gave a remaining binding of 100% (binding, competition with immobilised ligand; 0.1 µM).
`Cn1cc(-c2cnc3ccc(NC(=O)Nc4ccc5sccc5c4)cc3n2)cn1` gave an inhibition of 1.8% (kinase binding, KiNativ profiling, refers to: Lys1 peptide; PANC-1 lysate; 2.5 µM).
For `CN1CC[C@@H](COc2cnc(C#N)cc2-c2ccn3nc(NC(=O)C4CC4)cc3c2)C1`, the inhibition was -19% (inhibitor, KinaseProfiler panel; 1 µM).
With `CC(=O)N1c2ccc(-c3ccc(CNC(=O)c4cn5cc(-c6cnc(N)nc6)nc(N6CCOCC6)c5n4)cc3)cc2CC[C@@H]1C` the remaining binding was 88% (binding, competition with immobilised ligand; 10 µM).

Repeated from above:
With `Nc1ncc(-c2cc(-c3cnn(CC(F)(F)F)c3)ncc2F)nc1C(=O)NC1CNCC(F)C1` (centres unmarked) the remaining activity was 94.4% (enzyme activity; 1 µM; relative to: DMSO control).
`Cc1cnc2nc1Nc1cccc(c1)COC/C=C/COCc1cc(ccc1OCCN1CCOCC1)N2` gave a remaining binding of 100% (binding, competition with immobilised ligand; 0.1 µM).
